Results gathered from unrelated publications.
Lines come from different studies, so protocols differ.
G3BP1 full length: Ras GTPase-activating protein-binding protein 1, full length (G3BP1, Homo sapiens, UniProt Q13283)
Chain of UniProt Q13283 (whole entry, looked up): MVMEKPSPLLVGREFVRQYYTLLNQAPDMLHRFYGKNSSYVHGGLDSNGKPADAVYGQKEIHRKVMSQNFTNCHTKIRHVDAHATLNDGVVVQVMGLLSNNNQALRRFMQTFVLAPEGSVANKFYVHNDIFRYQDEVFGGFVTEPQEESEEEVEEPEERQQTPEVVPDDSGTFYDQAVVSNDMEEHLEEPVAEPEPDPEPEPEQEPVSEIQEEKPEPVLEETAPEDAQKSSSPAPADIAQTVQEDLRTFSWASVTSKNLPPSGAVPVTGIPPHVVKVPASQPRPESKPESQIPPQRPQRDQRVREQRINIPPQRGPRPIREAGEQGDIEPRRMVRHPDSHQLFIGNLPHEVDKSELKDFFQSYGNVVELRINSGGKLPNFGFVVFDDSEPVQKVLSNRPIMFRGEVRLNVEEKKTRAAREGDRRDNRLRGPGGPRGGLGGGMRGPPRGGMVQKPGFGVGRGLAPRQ
Chain of UniProt P14921 (whole entry, unmodified, looked up): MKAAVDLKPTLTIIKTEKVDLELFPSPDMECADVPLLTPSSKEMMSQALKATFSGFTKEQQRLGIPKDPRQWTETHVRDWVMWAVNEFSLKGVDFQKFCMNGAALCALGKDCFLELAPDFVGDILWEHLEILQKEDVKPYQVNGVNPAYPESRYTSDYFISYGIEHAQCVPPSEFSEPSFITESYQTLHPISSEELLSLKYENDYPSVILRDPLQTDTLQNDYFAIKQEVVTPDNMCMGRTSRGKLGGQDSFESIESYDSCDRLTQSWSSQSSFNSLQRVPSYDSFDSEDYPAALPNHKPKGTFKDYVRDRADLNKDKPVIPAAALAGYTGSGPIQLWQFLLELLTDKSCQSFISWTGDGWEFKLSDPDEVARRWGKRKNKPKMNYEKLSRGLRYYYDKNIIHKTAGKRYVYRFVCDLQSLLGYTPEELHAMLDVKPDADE
Chain of UniProt Q9Y261 (142-269, looked up): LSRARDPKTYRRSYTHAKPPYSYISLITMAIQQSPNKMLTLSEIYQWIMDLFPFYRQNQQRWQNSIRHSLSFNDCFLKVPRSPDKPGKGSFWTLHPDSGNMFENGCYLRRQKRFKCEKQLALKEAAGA

| Molecule | target | assay | system | conditions | scale | quantity | result |
| --- | --- | --- | --- | --- | --- | --- | --- |
| PhoQ, residues 284 288 289 292 302 303 GANMMA | PhoP, residues 12 14 15 18 19 NYFTV (Escherichia coli, UniProt P23836) | Sort-seq, item: YFP reporter | E. coli | PhoQ-PhoP variant library, with: 10 µM Mg2+ | baseline: high Mg2+ state, higher = stronger signaling | fold induction | 1.72 |
| GGGAGUUCUACAGUCCGACGAUCAGGGAGGUGGAUUUUGUUUAUUUUUUUAGCUCAUUUCCAGGGGUGGGAAUUUUUUUUUAAUAUGUGUCAUGAAUAAAGUUGUUUUUGAAAUGGAAUUCUCGGGUGUCAAGG | G3BP1 full length | RNA Bind-n-Seq | RNA, in vitro | 200 nM, whole 134-nt RNA, ends assumed, with: 150 mM KCl | baseline: input library, higher = stronger binding | log2 enrichment | -0.00312 |
| CGGTTTGC | Protein C-ets-1 (ETS1, Homo sapiens, UniProt P14921, residues 1-441, Y397A, full length assumed) | protein-binding microarray | double-stranded DNA, one strand shown, in vitro | not given, k-mer, scored over probes, only values ≥0.25 | higher = stronger binding | E-score | 0.31 |
| GGGAGUUCUACAGUCCGACGAUCGUCCUGUGCUACACAUCGUAUGUACCGAAUCGGGAAAGGGUUUUUUUGGGAAAAAGGGAAAGUAUUAUGUUACGCCGUUCGGAUCUGCACUGGAAUUCUCGGGUGUCAAGG | G3BP1 full length | RNA Bind-n-Seq | RNA, in vitro | 200 nM, whole 134-nt RNA, ends assumed, with: 150 mM KCl | baseline: input library, higher = stronger binding | log2 enrichment | -0.493 |
| GCCTAGCACGACGGTATCGGTTTCGGCACGTGCTAGGTCTTGATTCGCTTGACGCTGCTG | Interferon regulatory factor 5, full length, phosphomimetic (IRF5, Homo sapiens, UniProt Q13568-2, residues 1-514, K96S/S451D/S453D/S456D/S462D) | protein-binding microarray | double-stranded DNA, one strand shown, in vitro | 250 nM, 60-bp whole probe, with: salmon DNA 0.4 mg/ml | baseline: random background probes, higher = stronger binding | log fluorescence | 8.77 z-score |
| TTAGACAA | Hepatocyte nuclear factor 3-beta, forkhead domain (FOXA2, Homo sapiens, UniProt Q9Y261, residues 142-269) | protein-binding microarray | double-stranded DNA, one strand shown, in vitro | not given, k-mer, scored over probes, only values ≥0.25 | higher = stronger binding | E-score | 0.262 |
| CGAGCTCC | Histone acetyltransferase KAT6A, winged helix 1, GST fusion (KAT6A, Homo sapiens, UniProt Q92794, residues 1-85) | protein binding microarray | double-stranded DNA, one strand shown, in vitro | not given, 8-mer, flanks averaged, mean of 2 arrays, mostly near background | baseline: not given, higher = stronger binding | E-score | 0.0116 |
| GCCTAGCACGACGATTTCAGTTTTGAGACGTGCTAGGTCTTGATTCGCTTGACGCTGCTG | Interferon regulatory factor 5, full length, phosphomimetic (IRF5, Homo sapiens, UniProt Q13568-2, residues 1-514, S451D/S453D/S456D/S462D) | protein-binding microarray | double-stranded DNA, one strand shown, in vitro | 940 nM top, 60-bp whole probe, with: salmon DNA 0.4 mg/ml | baseline: random background probes, higher = stronger binding | fitted relative affinity | 0.5 z-score |

Some of these lines once more:
| Molecule | target | assay | system | conditions | scale | quantity | result |
| --- | --- | --- | --- | --- | --- | --- | --- |
| CGGTTTGC | Protein C-ets-1 (ETS1, Homo sapiens, UniProt P14921, residues 1-441, Y397A, full length assumed) | protein-binding microarray | double-stranded DNA, one strand shown, in vitro | not given, k-mer, scored over probes, only values ≥0.25 | higher = stronger binding | E-score | 0.31 |
